Published values from different studies.
± marks the error that the study gave.
UniProt O14965, sequence (whole entry, looked up): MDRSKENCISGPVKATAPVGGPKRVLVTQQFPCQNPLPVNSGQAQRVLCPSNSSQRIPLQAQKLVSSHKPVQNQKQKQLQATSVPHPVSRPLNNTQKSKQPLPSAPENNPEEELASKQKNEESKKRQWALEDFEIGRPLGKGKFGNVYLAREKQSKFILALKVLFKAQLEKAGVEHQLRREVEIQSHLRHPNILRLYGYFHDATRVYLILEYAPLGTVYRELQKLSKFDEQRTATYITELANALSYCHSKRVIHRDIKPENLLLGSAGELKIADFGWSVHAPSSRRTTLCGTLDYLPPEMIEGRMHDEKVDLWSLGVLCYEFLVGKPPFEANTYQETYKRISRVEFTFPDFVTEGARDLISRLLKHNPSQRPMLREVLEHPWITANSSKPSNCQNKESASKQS
UniProt P51449, sequence (whole entry, looked up): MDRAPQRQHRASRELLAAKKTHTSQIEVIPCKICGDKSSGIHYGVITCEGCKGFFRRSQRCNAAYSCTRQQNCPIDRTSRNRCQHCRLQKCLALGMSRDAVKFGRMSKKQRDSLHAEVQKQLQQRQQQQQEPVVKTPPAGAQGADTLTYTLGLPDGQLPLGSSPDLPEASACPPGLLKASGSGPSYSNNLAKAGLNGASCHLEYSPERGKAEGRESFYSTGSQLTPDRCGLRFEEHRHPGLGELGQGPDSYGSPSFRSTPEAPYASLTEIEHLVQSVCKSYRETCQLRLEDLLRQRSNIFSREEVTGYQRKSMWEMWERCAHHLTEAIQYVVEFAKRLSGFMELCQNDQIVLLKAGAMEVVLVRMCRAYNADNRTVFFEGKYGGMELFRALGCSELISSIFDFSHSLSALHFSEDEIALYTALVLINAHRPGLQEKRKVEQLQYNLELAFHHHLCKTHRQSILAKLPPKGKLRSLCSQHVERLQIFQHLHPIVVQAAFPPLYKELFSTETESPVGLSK
UniProt A2RI47, sequence (whole entry, looked up): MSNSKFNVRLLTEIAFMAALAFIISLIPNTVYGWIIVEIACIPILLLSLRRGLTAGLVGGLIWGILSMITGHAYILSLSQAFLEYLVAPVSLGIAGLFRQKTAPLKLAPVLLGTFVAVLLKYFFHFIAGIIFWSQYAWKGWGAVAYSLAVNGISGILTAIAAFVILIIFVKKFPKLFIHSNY
UniProt Q9HC29, sequence (whole entry, looked up): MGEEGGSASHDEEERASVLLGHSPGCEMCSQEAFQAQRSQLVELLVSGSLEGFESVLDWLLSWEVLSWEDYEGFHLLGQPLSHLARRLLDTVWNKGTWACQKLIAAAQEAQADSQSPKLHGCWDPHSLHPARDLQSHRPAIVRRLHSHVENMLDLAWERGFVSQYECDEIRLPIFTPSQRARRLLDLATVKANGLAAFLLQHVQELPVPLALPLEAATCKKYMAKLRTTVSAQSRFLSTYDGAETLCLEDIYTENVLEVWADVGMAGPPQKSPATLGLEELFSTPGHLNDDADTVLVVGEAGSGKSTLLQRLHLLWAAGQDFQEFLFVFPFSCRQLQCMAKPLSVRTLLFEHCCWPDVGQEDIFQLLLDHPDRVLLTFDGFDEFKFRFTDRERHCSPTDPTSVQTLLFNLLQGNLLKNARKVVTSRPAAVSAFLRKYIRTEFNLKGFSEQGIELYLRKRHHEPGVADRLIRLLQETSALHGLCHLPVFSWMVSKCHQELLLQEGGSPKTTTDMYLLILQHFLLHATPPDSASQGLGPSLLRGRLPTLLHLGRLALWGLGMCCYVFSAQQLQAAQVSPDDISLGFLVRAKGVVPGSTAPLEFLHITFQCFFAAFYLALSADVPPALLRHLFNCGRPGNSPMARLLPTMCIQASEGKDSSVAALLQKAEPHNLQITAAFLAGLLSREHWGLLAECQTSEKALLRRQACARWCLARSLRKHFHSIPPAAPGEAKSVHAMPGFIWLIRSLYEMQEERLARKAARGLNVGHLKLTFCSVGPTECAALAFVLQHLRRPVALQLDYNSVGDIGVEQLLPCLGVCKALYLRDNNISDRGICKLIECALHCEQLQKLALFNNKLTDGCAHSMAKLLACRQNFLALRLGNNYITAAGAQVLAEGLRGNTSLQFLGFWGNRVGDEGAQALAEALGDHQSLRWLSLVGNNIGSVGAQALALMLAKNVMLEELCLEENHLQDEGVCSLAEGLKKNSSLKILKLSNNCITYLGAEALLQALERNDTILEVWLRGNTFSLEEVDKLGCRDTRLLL
UniProt P08172, sequence (whole entry, looked up): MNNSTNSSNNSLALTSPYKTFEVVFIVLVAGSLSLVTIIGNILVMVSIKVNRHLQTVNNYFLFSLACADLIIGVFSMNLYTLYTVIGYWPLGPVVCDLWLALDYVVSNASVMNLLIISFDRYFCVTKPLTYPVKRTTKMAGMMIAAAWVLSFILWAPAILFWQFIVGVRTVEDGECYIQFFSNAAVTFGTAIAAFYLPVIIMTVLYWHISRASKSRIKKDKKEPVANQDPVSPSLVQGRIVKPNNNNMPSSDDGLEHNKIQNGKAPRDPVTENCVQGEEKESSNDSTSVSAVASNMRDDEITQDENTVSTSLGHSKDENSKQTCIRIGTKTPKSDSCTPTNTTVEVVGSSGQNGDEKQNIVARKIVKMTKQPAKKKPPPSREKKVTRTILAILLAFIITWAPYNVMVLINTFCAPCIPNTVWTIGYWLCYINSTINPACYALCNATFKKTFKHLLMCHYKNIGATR
UniProt Q9UBN7, sequence (whole entry, looked up): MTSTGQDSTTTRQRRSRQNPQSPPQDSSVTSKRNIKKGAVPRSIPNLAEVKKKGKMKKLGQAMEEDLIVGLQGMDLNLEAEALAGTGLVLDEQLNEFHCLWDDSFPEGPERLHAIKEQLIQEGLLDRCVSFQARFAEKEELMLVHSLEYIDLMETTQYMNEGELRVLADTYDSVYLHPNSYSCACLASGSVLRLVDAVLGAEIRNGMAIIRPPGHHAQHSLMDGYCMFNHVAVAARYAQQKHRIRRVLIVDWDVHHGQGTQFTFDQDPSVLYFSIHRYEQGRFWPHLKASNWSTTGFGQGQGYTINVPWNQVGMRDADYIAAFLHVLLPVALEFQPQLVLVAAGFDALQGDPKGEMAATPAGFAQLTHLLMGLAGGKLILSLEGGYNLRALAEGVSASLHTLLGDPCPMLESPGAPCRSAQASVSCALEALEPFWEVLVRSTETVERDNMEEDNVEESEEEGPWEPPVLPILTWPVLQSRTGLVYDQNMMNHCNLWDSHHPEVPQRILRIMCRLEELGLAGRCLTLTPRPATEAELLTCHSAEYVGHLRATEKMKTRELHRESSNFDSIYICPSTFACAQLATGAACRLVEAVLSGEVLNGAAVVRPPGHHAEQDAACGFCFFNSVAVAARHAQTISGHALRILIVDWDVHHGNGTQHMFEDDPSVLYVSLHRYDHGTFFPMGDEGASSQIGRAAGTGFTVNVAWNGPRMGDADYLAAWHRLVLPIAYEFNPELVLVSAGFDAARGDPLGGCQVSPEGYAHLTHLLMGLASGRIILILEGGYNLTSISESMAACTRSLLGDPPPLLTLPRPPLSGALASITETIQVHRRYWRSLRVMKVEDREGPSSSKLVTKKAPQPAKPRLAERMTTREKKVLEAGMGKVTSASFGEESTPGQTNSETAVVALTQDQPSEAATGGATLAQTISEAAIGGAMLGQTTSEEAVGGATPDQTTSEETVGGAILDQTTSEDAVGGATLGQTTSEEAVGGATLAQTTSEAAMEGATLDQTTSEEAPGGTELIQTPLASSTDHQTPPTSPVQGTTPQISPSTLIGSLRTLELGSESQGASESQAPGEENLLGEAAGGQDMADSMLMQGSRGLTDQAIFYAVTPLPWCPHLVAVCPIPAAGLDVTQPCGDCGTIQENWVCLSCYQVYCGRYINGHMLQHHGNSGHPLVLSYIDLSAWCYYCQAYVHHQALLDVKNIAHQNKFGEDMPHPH

Structure (SMILES) | target | assay | test system | conditions | Kd [µM]
COc1ccc(CNC(=O)CC[C@@H](C)[C@H]2CC[C@H]3[C@@H]4CC[C@@H]5CC(=O)CC[C@]5(C)[C@H]4CC[C@]23C)cc1 | RORC (Homo sapiens, UniProt P51449) | binding, MST |  |  | 0.618
CN(C)CCNC(=O)c1cccc2c(NCCCCc3c(N)nc(N)nc3N)c3ccccc3nc12 | RNA with G–G mismatch | binding, ITC |  | 25 °C, 2 | 7690 ± 280
[3H]CC([3H])C(=O)NC1CN(CCCCC2CCN(CC(=O)N3c4ccccc4NC(=O)c4ccccc43)CC2)CCN(CCCOc2nsnc2C2=CCCN(C)C2)C1 (stereo not drawn) | CHRM2 (Homo sapiens, UniProt P08172) | association and dissociation kinetics | CHO cell homogenates | 23 °C | 0.0002 ± 3e-05
C[C@H](N)C(=O)N[C@H](CCC(=O)O)C(N)=O | NOD2 (Homo sapiens, UniProt Q9HC29) | binding |  | pH 6.5 | 0.002 to 0.01
O=C(NO)c1cnc(NC2(c3cccc(F)c3)CCCCC2)nc1 | HDAC6 (Homo sapiens, UniProt Q9UBN7) | chemoproteomic pulldown | SW-620/MV4-11 lysate | 1 h, 30 °C | 0.398
C[n+]1cc(NC(=O)c2ccc3ccc4ccc(C(=O)Nc5cc6ccccc6[n+](C)c5)nc4c3n2)cc2ccccc21 | MYC promoter G4 DNA | binding, native ESI-MS | 100 mM trimethylammonium acetate | 1 mM KCl | 0.57
CC(C)C[C@H](NC(=O)[C@@H](NC(=O)[C@@H]1CCCN1C(=O)[C@@H]1CCCN1C(=O)[C@@H]1CCCN1C(=O)[C@H](CC(N)=O)NC(=O)[C@@H]1CCCN1C(=O)[C@H](C)NC(=O)[C@@H]1CCCN1C(=O)CNC(=O)[C@H](CCCCN)NC(=O)[C@@H](N)[C@@H](C)O)C(C)C)C(=O)N[C@@H](CCCCN)C(=O)N[C@H](C(=O)O)C(C)C | PACSIN3 SH3 domain, chicken | binding |  | pH 7 | 68.6 ± 5.7
Cc1nn(-c2cccc(N)c2)c(=O)c2cnc(Nc3ccc(N4CCNCC4)cc3)nc12 | pre-let-7d RNA | binding, SPR |  |  | 10.2
O=C1c2ccccc2C(=O)c2c1c(O)c1nc(Cc3ccccc3)[nH]c1c2O | Aurora kinase A (AURKA, Homo sapiens, UniProt O14965) | binding, BLI |  |  | 26
Cc1ncc(Cc2csc(C=NNC(=O)Cc3cccs3)c2C)c(N)n1 (mixture of isomers) | Thiamine transporter ThiT (Lactococcus lactis subsp. cremoris, UniProt A2RI47) | binding, ITC |  |  | 5.3
C[C@H](N)C(=O)N[C@@H](CCCNC(=N)N)C(=O)N[C@H](C(=O)N[C@@H](CCCCN)C(=O)N[C@@H](CCC(N)=O)C(=O)N[C@H](C(=O)N[C@@H](C)C(=O)N[C@@H](CCCNC(=N)N)C(=O)N[C@@H](CCCCN)C(=O)N[C@@H](CO)C(=O)N[C@H](C(=O)NCC(=O)O)[C@@H](C)O)[C@@H](C)O)[C@@H](C)O | WDR5 (Homo sapiens, UniProt P61964) | binding, ITC |  | pH 8 | 10.6
CCCCCCCCCc1nc2cc(Cl)ccc2c(=O)n1CCCN | Staphylococcus aureus membranes | membrane binding |  |  | 6.6 ± 0.2

Repeated from above:
Structure (SMILES) | target | assay | test system | conditions | Kd [µM]
CC(C)C[C@H](NC(=O)[C@@H](NC(=O)[C@@H]1CCCN1C(=O)[C@@H]1CCCN1C(=O)[C@@H]1CCCN1C(=O)[C@H](CC(N)=O)NC(=O)[C@@H]1CCCN1C(=O)[C@H](C)NC(=O)[C@@H]1CCCN1C(=O)CNC(=O)[C@H](CCCCN)NC(=O)[C@@H](N)[C@@H](C)O)C(C)C)C(=O)N[C@@H](CCCCN)C(=O)N[C@H](C(=O)O)C(C)C | PACSIN3 SH3 domain, chicken | binding |  | pH 7 | 68.6 ± 5.7
